Results pooled from the literature.
A part holds a random share of what one study measured. Substitutions count along the parent as printed.

Series 1
Target: RNA binding protein fox-1 homolog 2, RRM domain, GST-SBP tag (RBFOX2, Homo sapiens, UniProt O43251-10, residues 100-194)
Method: RNA Bind-n-Seq
Molecule type: RNA
Sample: in vitro
Concentration: 365 nM
Notes: natural RNA segment, single round, ends assumed
Baseline: no-protein control
Reading: higher = stronger binding
Endpoint: RBNS enrichment (R)
Target sequence (chain): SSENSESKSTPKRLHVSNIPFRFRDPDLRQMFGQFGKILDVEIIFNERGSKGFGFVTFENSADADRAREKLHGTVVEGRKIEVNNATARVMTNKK
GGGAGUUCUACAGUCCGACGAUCUCCCUCUUCGGGGGCAGACCCCACACUCCGGGCAGGUGCUCAAACCUGACGGUAAACUCUUCCCUCUUCGGGGGCAGACCCCAUACCCCGGGGCGGGUGCUUAGGCUUUCUGGAAUUCUCGGGUGCCAA: 0.278
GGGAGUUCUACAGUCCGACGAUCUGAGGCUACCCAGAGCCGGCGGGAGGACAGGAGACUGUGGGAUGUGGUCCAGGGGCCGCGGAGUGGUUUGGGGGGGAAAAGAGAUUUUUUUCUUCUCUUAAUGGGAAUCGUGGAAUUCUCGGGUGCCAA: 0.638
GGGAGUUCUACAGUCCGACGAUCAAAGACAGACAGGCAAAGACGGCACACGUUGGGUCUGCUUCCAGUCCAUAGGCCACCAAUUCUCCUUGCGCUGCUCAGGCCUUCUCUCACCAGAUGGGCUUCCAUUCACCUGGAAUUCUCGGGUGCCAA: 0.192
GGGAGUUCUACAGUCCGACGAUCGGGACGCCCCCAGACCCUGACUUUCUCCUGCGUGGGCCGUCUCCUCCUGCGGAAGCAGUGACCUCUGACCCCUGGUGACCUUCGCUUUGAGUGCCUUUUGAACGCUGGUCUGGAAUUCUCGGGUGCCAA: 0.557
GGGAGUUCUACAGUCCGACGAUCCAUUACUGUGUAUGUUAGGGUAUUAAAACUGUUUCACCAGUACAGUGAAAGUUGUUUCAACAUUUUAAACAAACAGUGGUUAUAGACUCUUUCUUUAACCAUUGUAUAUUUGGAAUUCUCGGGUGCCAA: 0.385
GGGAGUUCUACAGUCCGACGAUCUCUCUGAGGGGCGCCAUCUUGACCUUGUGGUUCUCUCUGCAUCUUGACCUCUGUCUUGACAGUGCCCUCCACAACUGUGUCCUGUGUGGGAGACUCACCCCACACGCCCUUGGAAUUCUCGGGUGCCAA: 3.7
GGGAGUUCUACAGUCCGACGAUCCCUGCCAGAUAUUGCCCAGCGUGAGGAGCGAUCUCAGCAGGCCUAUAAGAGUCAGCAUGGAGAGCCCCUGCUAAUGGAGUACAGCCGCCAGGAGCUACUCAGGAAGGAACUGGAAUUCUCGGGUGCCAA: 0.931
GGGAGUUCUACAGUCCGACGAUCACCAUGUGCCCCUGGCUGCCCUUAUCCGCCCAAACCAAAGGCUGAGAGGGGGAGGCCUGUGUCCUUCCAGCUUCAUUGCACAUGGUCCCCCUCCUGCAACCAGGCUACCUUGGAAUUCUCGGGUGCCAA: 0.444

Series 2
Target: CCNF, cyclin fold, Cln2 fusion (human)
Method: yeast growth competition, sequencing
Sample: yeast
Notes: strong parent motif
Baseline: not given
Reading: higher = stronger binding
Endpoint: normalised enrichment score
Parent: REV3L docking peptide (human); PPVIIKYIIINRF
I5A: 0.421
I4A: 0.64
Y7A: 1.68
I9A: 0.653
F13A: 0.834
N11A: 1.13
P2A: 1.77

Series 3
Molecule: PhoQ, residues 284 288 289 292 302 303 ALSMDL
Method: Sort-seq
Measured: YFP reporter
Sample: E. coli
Notes: PhoQ-PhoP variant library
Added: 10 µM Mg2+
Baseline: high Mg2+ state
Reading: higher = stronger signaling
Endpoint: fold induction
PhoP, residues 12 14 15 18 19 TQALL (Escherichia coli, UniProt P23836): 9.55
PhoP, residues 12 14 15 18 19 QYFSL (Escherichia coli, UniProt P23836): 7.68
PhoP, residues 12 14 15 18 19 NYFRM (Escherichia coli, UniProt P23836): 16.3

Series 4
Target: Interferon regulatory factor 7, full length, phosphomimetic (IRF7, Homo sapiens, UniProt Q92985, residues 1-503, S471D/S472D/S475D/S476D/S477D/S483D/S484D/S487D)
Method: protein-binding microarray
Molecule type: double-stranded DNA, one strand shown
Sample: in vitro
Concentration: 2200 nM top
Notes: 60-bp whole probe
Added: salmon DNA 0.4 mg/ml
Baseline: random background probes
Reading: higher = stronger binding
Endpoint: fitted relative affinity
Constant ends, left off below: GCCTAGCAC … GTCTTGATTCGCTTGACGCTGCTG
Target sequence (chain): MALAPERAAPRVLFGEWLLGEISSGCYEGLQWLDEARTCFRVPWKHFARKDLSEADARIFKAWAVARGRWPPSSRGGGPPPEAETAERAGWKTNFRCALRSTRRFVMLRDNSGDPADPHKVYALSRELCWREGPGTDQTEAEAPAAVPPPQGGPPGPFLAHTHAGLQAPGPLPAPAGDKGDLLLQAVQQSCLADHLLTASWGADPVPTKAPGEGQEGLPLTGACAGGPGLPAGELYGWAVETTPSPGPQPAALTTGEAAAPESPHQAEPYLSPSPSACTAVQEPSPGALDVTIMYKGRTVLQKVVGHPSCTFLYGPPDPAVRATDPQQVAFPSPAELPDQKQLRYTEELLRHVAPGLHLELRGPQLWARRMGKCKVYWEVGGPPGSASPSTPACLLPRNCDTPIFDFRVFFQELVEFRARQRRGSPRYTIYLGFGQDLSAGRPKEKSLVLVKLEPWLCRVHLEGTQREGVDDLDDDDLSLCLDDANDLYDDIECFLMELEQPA
TCAGTCATCTATAATGGAACTGTGCTA: 0.0295 z-score
GACGGTCTCGGTCTCGGAACGTGCTAG: -0.016 z-score
TTAGGTATCCGTCTCCTTTAGTGCTAG: 0.985 z-score
AGGGTCATCCATCTGAACCAGTGCTAG: -0.472 z-score
CCCGCCCCGCCCCGCCCGCAGTGCTAG: -0.53 z-score
CACGGTATCGGGACTGGGGACGTGCTA: -0.335 z-score
GACGAACGGAGTCTCGAGACGTGCTAG: -0.137 z-score
TTACAACTGGGGTATCGATTAGTGCTA: 0.438 z-score
TCAATTATAACACTCTTACTGTGCTAG: 0.536 z-score
TTAGATATCGGGACAGGATTAGTGCTA: -0.472 z-score
TTAAGTTTCGGTTCCGGTTAGTGCTAG: 12.9 z-score
TCAATTTTGTTCATCATACTGTGCTAG: 0.964 z-score
TCATATATATAATATATAACTGTGCTA: 0.169 z-score
TCACATTTCCAATTACCACTGTGCTAG: 2.82 z-score
GACGGTCTCAGTCTCGAGACGTGCTAG: 0.0321 z-score
TCACTTCTTTTTTTTCTACTGTGCTAG: 2.51 z-score

Some of these lines once more (series 4):
TCAATTTTGTTCATCATACTGTGCTAG: 0.964 z-score
AGGGTCATCCATCTGAACCAGTGCTAG: -0.472 z-score
TCATATATATAATATATAACTGTGCTA: 0.169 z-score
